Results from different studies.
Every numbered part comes from another study and shows a few of its results, in no order. Positions count from the first letter of the parent shown.

Set 1
Target: Ras GTPase-activating protein-binding protein 1, full length (G3BP1, Homo sapiens, UniProt Q13283)
Sequence of UniProt Q13283 (whole entry, looked up): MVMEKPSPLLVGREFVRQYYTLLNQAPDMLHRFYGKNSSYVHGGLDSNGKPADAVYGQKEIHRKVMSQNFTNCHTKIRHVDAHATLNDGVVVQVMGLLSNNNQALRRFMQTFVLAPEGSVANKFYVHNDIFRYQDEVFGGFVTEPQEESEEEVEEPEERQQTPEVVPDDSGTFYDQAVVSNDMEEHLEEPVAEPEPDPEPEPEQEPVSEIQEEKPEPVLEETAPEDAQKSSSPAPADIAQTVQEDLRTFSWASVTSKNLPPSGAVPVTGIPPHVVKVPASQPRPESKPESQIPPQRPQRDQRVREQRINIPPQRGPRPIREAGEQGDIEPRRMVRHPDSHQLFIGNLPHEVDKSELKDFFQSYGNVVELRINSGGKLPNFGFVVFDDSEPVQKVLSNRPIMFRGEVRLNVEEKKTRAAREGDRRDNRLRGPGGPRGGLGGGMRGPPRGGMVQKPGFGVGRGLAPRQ
Method: RNA Bind-n-Seq
Form: RNA
Matrix: in vitro
Tested at: 200 nM
Notes: whole 134-nt RNA, ends assumed
Together with: 150 mM LiCl
Baseline: input library
Direction: higher = stronger binding
Library: 7-deaza-guanosine replaces G
Constant ends, left off below: GGGAGUUCUACAGUCCGACGAUC … UGGAAUUCUCGGGUGUCAAGG
Sequence	log2 enrichment
CACAGACAACACGCACCCACACAGACACAGAGGGAAGGGGUUGGGAUGGAAACAGGGUGCACAGCAGGGCGGGGUAGGACCCCAGCCCCU	0.48
AGUCCUGUGCUACACAUCGUAUGUACCGAAUCGGAAAAAGGAAAAAGGAAAAAGGGGAAAGUAUUAUGUUACGCCGUUCGGAUCUGCACU	-1.15
GUCCUGUGCUACACAUCGUAUGUACCGAAUCAAACCCCCAAACCCCCCCAAACCCAAAAAAGUAUUAUGUUACGCCGUUCGGAUCUGCAC	0.0322
UCCUGUGCUACACAUCGUAUGUACCGAAUCGGGCCCCCGGGCCCCCGGGGCCCCCGGGGAAAGUAUUAUGUUACGCCGUUCGGAUCUGCA	-1.48
CAAGUCCUGUGCUACACAUCGUAUGUACCGAAUCGGGGUGGGGAGGGGAAAGGGGAAAGUAUUAUGUUACGCCGUUCGGAUCUGCACUUC	-0.225
CCUCAAGUCCUGUGCUACACAUCGUAUGUACCGAAUCGGGGCGGCGGGCGGGGAAAGUAUUAUGUUACGCCGUUCGGAUCUGCACUUCCA	-0.264
UCCUGUGCUACACAUCGUAUGUACCGAAUCGGAAAAAAGGGAAAAAAGGGGAAAAAAGGAAAGUAUUAUGUUACGCCGUUCGGAUCUGCA	-0.532
CAAGUCCUGUGCUACACAUCGUAUGUACCGAAUCGGUUUUUGGUUUUUGGUUUGGAAAGUAUUAUGUUACGCCGUUCGGAUCUGCACUUC	-1.4
GAUGAGACAGAUGCUUCAUCAGCAGUGAAAGUGAAAAGAGCAGUCCAGAAAACAUCCGAUUUAAUAGUGUUGGGUCUCCCAUGGAAAACA	-1.25
UAACUUUAGAGGACGAUCUGAUGGAUAUGGCAGUGGACGUGGAUUUGGGGAUGGCUAUAAUGGGUAUGGAGGAGGACCUGGAGGUGGCAA	-0.0552
CUCAAGUCCUGUGCUACACAUCGUAUGUACCGAAUCGGGCCGGGGCCGGCCGGGAAAGUAUUAUGUUACGCCGUUCGGAUCUGCACUUCC	0.388

Set 2
Target: Centromere-binding protein 1, full length, N-terminal tag (CBF1, Saccharomyces cerevisiae, UniProt P17106, residues 1-351)
Sequence of UniProt P17106 (whole entry, looked up): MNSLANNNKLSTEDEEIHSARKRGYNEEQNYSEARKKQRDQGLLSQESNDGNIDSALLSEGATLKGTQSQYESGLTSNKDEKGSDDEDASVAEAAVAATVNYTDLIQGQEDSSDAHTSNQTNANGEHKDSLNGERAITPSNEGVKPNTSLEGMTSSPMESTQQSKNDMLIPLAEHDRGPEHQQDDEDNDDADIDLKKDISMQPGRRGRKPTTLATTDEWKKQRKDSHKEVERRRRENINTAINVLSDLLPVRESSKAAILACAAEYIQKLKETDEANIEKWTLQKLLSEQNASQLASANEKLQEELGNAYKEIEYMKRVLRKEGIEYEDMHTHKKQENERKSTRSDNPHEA
Method: protein-binding microarray
Form: double-stranded DNA, one strand shown
Matrix: in vitro
Tested at: 0.8 µM
Notes: whole 60-bp probe, no competitor
Direction: higher = stronger binding
Constant ends, left off below: … GTCTTGATTCGCTTGACGCTGCTG
Sequence	fluorescence intensity [a.u.]
CTATCAAGAAGCCCGCATGTGCTACTTACGTTTTTC	545
CTAGAGTTTGGTTGCCACATGTACGCTTAGGACTTC	629
CCTAACTACTATAATCACATGATATAGCTTCGTACA	3450
CTATAAAATCCAACGCACGATGCTAGAGATAAATTC	512
CTAGCATCAATATATGGTGTGACCAGATTGGACTTC	745
GAAATGTGAACACGTCATCATAGACGGTTGTTGTAG	590
CTAAACTAGGCCCAGCACGGGTTTGGCGAGGCCTTC	574
CTACAATTATCAAACCACATGAAACTTTTTTAATTC	672
GAAGGAAATCAGTTGCATGTGCCCAAGGAATGGTAG	1050
GAATGATTCCTTAATGTGATGATGCAGGATTAGTAG	587
CCTAACTACTATATTCCCGTCACATAGCTTCGTACA	543
CTACAGTGTACTCTTCACGATATTTTGCATTTTTTC	547
CTACCAAAGAAAACTAACGTGGACCGCTTTTAGTTC	554
CCTAACTACTATAGGAATGACACATAGCTTCGTACA	529
TGTACGAAGCTATCCCACATGAATATAGTAGTTAGG	538
CTAAAAAAGAGGAATTGCGTGGCGGCGTGGATGTTC	539
CTAGTTCAATGCCTTCATATGATTGGTCCGAATTTC	513
GAAAAGTGGGGTGCTCAGCTGATTTGCATCTTTTAG	714

Set 3
Target: ABI1, truncated, D143A, DHFR fusion (Arabidopsis thaliana)
Method: DHFR PCA, deep sequencing
Matrix: yeast
Notes: methotrexate growth selection, single substitutions
Together with: (+)-ABA 0.39 µM
Baseline: wild-type fitted maximum
Direction: higher = stronger binding
Starting sequence: PYL1, truncated, DHFR fusion (Arabidopsis thaliana); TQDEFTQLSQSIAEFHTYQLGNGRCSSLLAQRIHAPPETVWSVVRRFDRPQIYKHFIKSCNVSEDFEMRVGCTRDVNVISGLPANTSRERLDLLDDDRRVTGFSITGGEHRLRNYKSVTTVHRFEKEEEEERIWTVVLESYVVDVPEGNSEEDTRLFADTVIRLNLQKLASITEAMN; partner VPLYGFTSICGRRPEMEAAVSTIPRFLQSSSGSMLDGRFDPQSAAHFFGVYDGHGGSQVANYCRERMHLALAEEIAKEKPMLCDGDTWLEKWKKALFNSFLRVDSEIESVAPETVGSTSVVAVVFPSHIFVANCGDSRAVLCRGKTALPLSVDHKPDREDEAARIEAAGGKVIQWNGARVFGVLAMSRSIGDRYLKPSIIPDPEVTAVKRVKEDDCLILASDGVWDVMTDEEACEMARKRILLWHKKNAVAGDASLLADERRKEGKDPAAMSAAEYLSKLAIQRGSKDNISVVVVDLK
Substitution	relative binding score [%]
V62A	6.47
N165V	11.7
I12V	18.8
E125D	36.6
N114L	-9.6
S117D	-5.32
V44E	5.94
N77G	26.5
D92L	-2.48
P50I	-13.7
E128H	50.7
D95E	11.2
K58I	-8.08
L82K	0.06
D144V	-8.76

Set 4
Target: RING finger protein unkempt homolog, zinc fingers 1-6, GST-SBP tag (UNK, Homo sapiens, UniProt Q9C0B0, residues 30-357)
Sequence of UniProt Q9C0B0 (30-357, looked up): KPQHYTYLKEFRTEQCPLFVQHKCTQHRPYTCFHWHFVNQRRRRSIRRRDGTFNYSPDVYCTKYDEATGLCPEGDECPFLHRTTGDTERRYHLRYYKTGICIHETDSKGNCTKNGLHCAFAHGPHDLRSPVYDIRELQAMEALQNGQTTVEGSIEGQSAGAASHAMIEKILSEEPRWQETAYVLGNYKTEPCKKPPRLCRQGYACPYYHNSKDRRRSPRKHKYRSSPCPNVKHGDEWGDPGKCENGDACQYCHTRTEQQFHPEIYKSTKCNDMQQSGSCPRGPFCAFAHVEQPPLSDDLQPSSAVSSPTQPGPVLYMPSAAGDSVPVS
Method: RNA Bind-n-Seq
Form: RNA
Matrix: in vitro
Tested at: not given
Notes: RNA with constant flanks, human and mouse sites, ends assumed
Baseline: input RNA pool
Direction: higher = stronger binding
Constant ends, left off below: GGGAGUUCUACAGUCCGACGAUC … CAACAGAGGAUUGAGCAUCA
Sequence	bound/input enrichment [ratio]
UAGGUCGUUCCCCAGCACCUCCAGGUUGGCCCACACAGGUACCAUAAGCUGCCUCGGCUCCCUGUGGCUUGUGCCCAUGCACCUGCCAGGGCCCAGCAGGCCAACCCAUCAUCUAGAGUA	89.3
CCCAAUGAGUUGCCAUAUAAUGAUUACUUUGAGUAUUUUGGACCAGACUUCAAACUGCAUAUUAGUCCUUCAAACAUGACAAACCAGAACACUCCAGAAUAUAUGGAAAAGAUAAAACAG	0.417
ACUUUUGCAGAUGAGCUGGUGGAGCUCAGCACAGCCCUGGAGCACCAGGAGUACAUUACUUUUCUUGAAGACCUCAAGAGUUUUGUCAAGAGCCAGUAGAGCAGACAGAUGCUGAAAGCC	0.245
AACUGGAAACCUUUUGUGUAUGGCGGCCUUGCCUCUAUUGUUGCCGAGUUCGGCACUUUCCCUGUGGAUCUUACUAAAACACGGCUGCAAGUCCAAGGCCAGAGUAUCGAUGUUCGUUUC	0.107
GCCAACAUCAAACGGGAACAGGGCAACAUUGAAGAGGCAGUUCGCCUGUAUCGCAAAGCAUUAGAAGUCUUCCCAGAGUUUGCUGCUGCACAUUCCAAUUUAGCAAGUGUACUGCAACAG	0.483
AUAUGCUUACCUUUUGAAUGAUCAUGGCUAUAUGUUGUUGAGAUAUUUGAAACUUACCUUGUUUUCACUUGUGCACUGUGAAUGAACUUUGUAUUAUUUUUUUAAAACCUUCACAUUACG	0.491
AGCACAUGAUUUGGGAAUUACACUUUGUGACAUGGAUGAAUCUGCACUGACCCUUGGUACAAUAGAUGUUUCUUAUCUGCCACAUUCAUCAGAAUACAGUGUUGGUCGAUGUAAGCACAC	0.228
AGUUUCUCCAGAGGAAGCAAUCAAAUGUGAGGACAAAUUCACAAAAUCCAAAACUGUUUAUAGCAUUCUUCGCCAUGUUGCUGAGGUAUUAGAAUAUACCAAGGAUGAGCAGCUGGAGAG	0.177
AGAGAACAGUUUAAUGACCUCUCUAUUGACCUUCCUCGUAGGAAAAAACCACUCCCUCCUCGUUCAAUUCAAGAUUCUCUUGAUCUUUUCUUUAGGGCCGAAGAACUGGAGUAUUCUUGU	0.177
AAACCAACUAAAAACAUGAUUAACAUCAACAGCCGCCUGCAGGAAGUCUUUGGCUGUGCCAUUAGGGCUGCAUAUCCAGACUUGGAGAACCCUCCCCUGAUCGUGACACCAAGUCAGCAG	2.15
GGUCUCAGCCCCCCACCCCCACCCCUUUGUUUGACUUGCGUCGUCUGAUACUCCGUAUUGUAGCUUUUGUCCGCAUGUUACUACCCUGUAAAUAUGCUGUUCCAAUACUGUUAACAGCCU	0.843

Set 5
Target: CCNB1, cyclin fold, Cln2 fusion (human)
Method: yeast growth competition, sequencing
Matrix: yeast
Notes: weak parent motif
Baseline: not given
Direction: higher = stronger binding
Starting sequence: SLBP docking peptide (human); ARYKRKLLINDFG
Substitution	normalised enrichment score
ARYKRKKLINDFG [L7K]	0.114
ARYKRKLLINDFV [G13V]	0.986
ARYKRALLINDFG [K6A]	0.965
ARYKRKTLINDFG [L7T]	0.189
ARYKRKLLINFFG [D11F]	0.409
ARYKRKNLINDFG [L7N]	1.11
ARYKRKLGINDFG [L8G]	0.661
ARTKRKLLINDFG [Y3T]	0.225
ARYKRKQLINDFG [L7Q]	0.489
ARYKKKLLINDFG [R5K]	0.966
ARYKRKLLINDIG [F12I]	0.467
ARYKRKLLIHDFG [N10H]	-0.0506
ARYKRKLLINDNG [F12N]	0.256
ARYKVKLLINDFG [R5V]	0.907

Excerpt of the above (set 2):
Sequence	fluorescence intensity [a.u.]
GAATGATTCCTTAATGTGATGATGCAGGATTAGTAG	587
CCTAACTACTATATTCCCGTCACATAGCTTCGTACA	543
CTACAGTGTACTCTTCACGATATTTTGCATTTTTTC	547
CTACCAAAGAAAACTAACGTGGACCGCTTTTAGTTC	554
CCTAACTACTATAGGAATGACACATAGCTTCGTACA	529
TGTACGAAGCTATCCCACATGAATATAGTAGTTAGG	538
CTAAAAAAGAGGAATTGCGTGGCGGCGTGGATGTTC	539
CTAGTTCAATGCCTTCATATGATTGGTCCGAATTTC	513
